Values quoted from earlier work, collected from citations in different studies.
Values joined by “and” are separate records of one study, mostly repeats; a detail may differ. ± gives the spread as reported.

`CCc1nc2c(nnn2-c2cccc(OC(C)C)c2)c(=O)[nH]1` gave an EC50 of 3000 nM (Chikungunya virus; viral replication).
The EC50 of `Cc1cc(C#N)cc(C)c1Oc1nc(NC2CCN(Cc3ccc(S(N)(=O)=O)cc3)CC2)nc2ccsc12` is reported as 2.9 nM (HIV-1; viral cytopathic effect, MTT; MT-4, E138K mutant).
`O=c1ccn([C@@H]2O[C@H](COC(c3ccccc3)(c3ccccc3)c3ccccc3)[C@@H](OC(c3ccccc3)(c3ccccc3)c3ccccc3)[C@H]2O)c(=O)[nH]1` gave an IC50 of 1000 nM (yellow fever virus; viral replication, inhibitor).
`N#Cc1cccc(CNc2ccc3ncnc(Nc4ccc(F)c(Cl)c4)c3c2)c1` has an IC50 of 157 nM (MERS coronavirus; viral replication).
With `O=C(NCc1ccc(F)cc1F)c1cn2ccn(CCCCCCO)c(=O)c2c(O)c1=O` the EC50 was 9.3 ± 1.9 nM (HIV-1 integrase S230N; viral replication; HIV-1; single-round vector).
With `COc1ccccc1[C@@H](NCCn1cnc2c(NCc3ccccc3)ncnc21)[C@@H](CO)Oc1ccccc1` the EC50 was 11500 nM (Chikungunya virus; viral replication).
The EC50 of `Clc1ccc(CN2CCCC3=CC4CC(CN5CCCCC45)C32)cc1Cl` (stereo not drawn) is reported as 7100 nM (Marburg virus; viral infection).
The EC50 of `O=C(Oc1cncc(Cl)c1)c1cccc2[nH]ccc12` is reported as 6900 nM (SARS-CoV; viral replication).
The EC50 of `Nc1c(C(=O)NCc2ccc(F)cc2F)c(=O)n(O)c2ncccc12` is reported as 16 ± 5 nM (HIV-1; viral replication; integrase G118R mutant).
For `O=c1[nH]c(=O)n([C@H]2C[C@H](OC(c3ccccc3)(c3ccccc3)c3ccccc3)[C@@H](COC(c3ccccc3)(c3ccccc3)c3ccccc3)O2)cc1F`, the EC50 was 1.05 µg/mL (yellow fever virus; viral replication).
For `O=C(Oc1cncc(Cl)c1)c1cccs1`, the IC50 was 500 nM (SARS-CoV; viral replication; Frankfurt-1).
`O=C(NCc1ccc(F)cc1F)c1cn2c(c(O)c1=O)C(=O)N(CCCCCCO)CC2` gave an EC50 of > 30 nM and 38 nM (HIV-1 integrase S230N; viral replication; HIV-1; single-round vector).

Repeated from above:
For `O=c1[nH]c(=O)n([C@H]2C[C@H](OC(c3ccccc3)(c3ccccc3)c3ccccc3)[C@@H](COC(c3ccccc3)(c3ccccc3)c3ccccc3)O2)cc1F`, the EC50 was 1.05 µg/mL (yellow fever virus; viral replication).
For `O=C(Oc1cncc(Cl)c1)c1cccs1`, the IC50 was 500 nM (SARS-CoV; viral replication; Frankfurt-1).
